# Published values pooled from the literature.
# Compare with care: the assays were run in different laboratories.
# Organism: Escherichia coli
SMILES,assay,test system,conditions,how to read,MIC
CC[C@H](C)[C@@H]1NC(=O)[C@H](CCCNC(=N)N)NC(=O)[C@@H](NC(=O)[C@H](CC(C)C)NC(=O)[C@@H](N)CCCNC(=N)N)CSSC[C@@H](C(=O)N[C@@H](CCCNC(=N)N)C(=O)O)NC(=O)[C@H](C(C)C)NC(=O)[C@H](CCCNC(=N)N)NC(=O)[C@H]([C@@H](C)CC)NC(=O)[C@H](C(C)C)NC(=O)[C@H](C(C)C)NC1=O,broth microdilution,"NBRC 3972, Mueller-Hinton broth","24 h, 37 °C",,50 µM
Oc1cc(Cl)ccc1Oc1ccc(Cl)cc1Cl,,MG1655 FabI G148S Debio-1452-NH3-resistant,,,2 µg/mL
CC1(C)SC2C(NC(=O)C(NC(=O)C3=C(O)C4(CC4)NC3=O)c3ccccc3)C(=O)N2C1C(=O)O (stereo not drawn),broth microdilution,"isolate IU, CTX-M-14, TEM-1",no clavulanic acid,,> 200 µg/mL
C[C@@H](O)[C@H]1C(=O)N2C(C(=O)O)=C(SCCN=CN)C[C@H]12,,DH5α cloned blaKPC-144,,,1 µg/mL
CC[C@H](C)[C@H](NC(=O)[C@H](CCCNC(=N)N)NC(=O)[C@H](CCCNC(=N)N)NC(=O)[C@H](CCCNC(=N)N)NC(=O)[C@H](CCCNC(=N)N)NC(=O)[C@H](CCCNC(=N)N)NC(=O)[C@@H](N)CCCNC(=N)N)C(=O)N[C@@H](CO)C(=O)N[C@@H](Cc1ccccc1)C(=O)N[C@@H](CC(C)C)C(=O)NCC(=O)N[C@@H](CO)C(=O)N[C@@H](CCCCN)C(=O)N[C@@H](CCCCN)C(=O)N[C@@H](CCCCN)C(=O)N[C@@H](CCCCN)C(=O)N[C@@H](CCCCN)C(=O)N[C@@H](CC(C)C)C(=O)N[C@@H](CC(C)C)C(=O)N[C@@H](CCCCN)C(=O)N[C@@H](CCCNC(=N)N)C(N)=O,checkerboard,,"24 h, 37 °C, alone, azithromycin plate",,32 µM
CC[C@H](C)[C@H](NC(=O)CN)C(=O)NCC(=O)N[C@@H](CCCCN)C(=O)N[C@@H](Cc1ccccc1)C(=O)N[C@@H](CC(C)C)C(=O)N[C@@H](CCCCN)C(=O)N[C@@H](CCCCN)C(=O)N[C@@H](C)C(=O)N[C@@H](CCCCN)C(=O)N[C@@H](CCCCN)C(=O)N[C@@H](Cc1ccccc1)C(=O)NCC(=O)N[C@@H](CCCCN)C(=O)N[C@@H](C)C(=O)N[C@@H](Cc1ccccc1)C(=O)N[C@H](C(=O)N[C@@H](CCCCN)C(=O)N[C@H](C(=O)N[C@@H](CC(C)C)C(=O)N[C@@H](CCCCN)C(=O)N[C@@H](CCCCN)C(N)=O)[C@@H](C)CC)C(C)C,broth dilution,"ATCC 25922, Mueller-Hinton broth","24 h, 37 °C",,6.3 µM
CC[C@H](C)[C@H](NC(=O)[C@H](CC(C)C)NC(=O)[C@H](CCCNC(=N)N)NC(=O)[C@@H](N)CCCNC(=N)N)C(=O)N[C@@H](CCCNC(=N)N)C(=O)N[C@H](C(=O)N[C@@H](CCCCN)C(=O)N[C@H](C(=O)NCC(=O)N1CCC[C@H]1C(=O)N[C@H](C(=O)N[C@H](C(=O)N[C@@H](Cc1ccc(O)cc1)C(=O)N[C@@H](CCCCN)C(=O)N[C@@H](Cc1ccc(O)cc1)C(=O)N[C@@H](Cc1ccccc1)C(=O)N[C@@H](CCCCN)C(=O)N[C@@H](CCCCN)C(=O)N[C@@H](CCC(N)=O)C(=O)N[C@@H](CC(C)C)C(=O)N[C@@H](CC(C)C)C(=O)N[C@@H](CCCCN)C(=O)N[C@@H](CCCCN)C(N)=O)[C@@H](C)CC)[C@@H](C)CC)[C@@H](C)O)[C@@H](C)O,broth microdilution,"KCTC 1682, Mueller-Hinton broth","24 h, 37 °C",,4 µM
CC[C@H](C)[C@H](NC(=O)CNC(=O)[C@H](CC(=O)O)NC(=O)[C@H](CCCNC(=N)N)NC(=O)[C@@H](NC(=O)[C@H](CC(N)=O)NC(=O)[C@H](CCCNC(=N)N)NC(=O)CNC(=O)[C@@H](NC(=O)[C@H](CCCCN)NC(=O)[C@H](CCC(=O)O)NC(=O)[C@@H](NC(=O)[C@H](CCCCN)NC(=O)[C@H](CCCCN)NC(=O)[C@H](Cc1ccccc1)NC(=O)[C@@H](NC(=O)[C@H](CCCCN)NC(=O)[C@H](Cc1c[nH]c2ccccc12)NC(=O)[C@@H](N)CCCNC(=N)N)[C@@H](C)CC)[C@@H](C)CC)C(C)C)C(C)C)C(=O)N[C@H](C(=O)N[C@@H](CCCCN)C(=O)N[C@@H](C)C(=O)NCC(=O)N1CCC[C@H]1C(=O)N[C@@H](C)C(=O)N[C@H](C(=O)N[C@@H](C)C(=O)N[C@H](C(=O)N[C@H](C(=O)NCC(=O)N[C@@H](CCC(N)=O)C(=O)N[C@@H](C)C(=O)N[C@@H](C)C(=O)N[C@H](C(=O)N[C@H](C(=O)N[C@H](C(=O)N[C@@H](CCCCN)C(N)=O)C(C)C)C(C)C)[C@@H](C)O)C(C)C)C(C)C)C(C)C)[C@@H](C)CC,,"K1 ATCC 700973, Mueller-Hinton broth","16 h, 37 °C",growth inhibition over 99%,1 µM
C[C@@H](O)[C@H](NC(=O)[C@H](Cc1ccccc1)NC(=O)[C@H](Cc1c[nH]c2ccccc12)NC(=O)[C@H](Cc1ccccc1)NC(=O)[C@@H](NC(=O)[C@H](Cc1ccccc1)NC(=O)[C@H](CCCNC(=N)N)NC(=O)[C@@H](N)CCCNC(=N)N)[C@@H](C)O)C(=O)N[C@@H](Cc1ccccc1)C(=O)N[C@@H](CCCNC(=N)N)C(=O)N[C@@H](CCCNC(=N)N)C(N)=O,,UB1005,"24 h, 37 °C",,8 µM
CC1(C)SC2C(NC(=O)C(NC(=O)C3=C(O)C(Cc4ccc(O)cc4)NC3=O)c3ccccc3)C(=O)N2C1C(=O)O (stereo not drawn),broth microdilution,"isolate IU 356 A, KPC-3, VIM-1, TEM",added: clavulanic acid 6 µg/mL,,> 200 µg/mL
CC1(C)S[C@@H]2[C@H](NC(=O)C(C(=O)O)c3ccccc3)C(=O)N2[C@H]1C(=O)O (stereo partly drawn),,BL21(DE3) wild type,,,< 1.75 µg/mL
CC(C)Oc1c(NC(=O)c2ccc(NC(=O)[C@H](CC(N)=O)NC(=O)c3ccc(/N=N/c4ccc(C#N)cc4)cc3)cc2)ccc(C(=O)Nc2ccc(C(=O)O)cc2)c1O,,BW25113,"18 h, 37 °C, dark-adapted state",,0.64 µg/mL
CC[C@H](C)[C@H](NC(=O)[C@@H]1CCCN1C(=O)[C@H](CS)NC(=O)[C@H](CCCNC(=N)N)NC(=O)[C@H](CCCNC(=N)N)NC(=O)[C@H](CCCNC(=N)N)NC(=O)[C@@H]1CCCN1C(=O)[C@H](Cc1ccccc1)NC(=O)[C@H](CC(C)C)NC(=O)[C@H](CO)NC(=O)[C@H](CCC(N)=O)NC(=O)[C@H](CCC(=O)O)NC(=O)[C@H](Cc1c[nH]c2ccccc12)NC(=O)CNC(=O)[C@H](CCSC)NC(=O)[C@H](C)NC(=O)[C@H](CCCNC(=N)N)NC(=O)[C@H](CO)NC(=O)[C@H](C)NC(=O)[C@H](CCCCN)NC(=O)[C@H](CC(C)C)NC(=O)[C@H](CCCNC(=N)N)NC(=O)[C@H](CC(N)=O)NC(=O)[C@H](CS)NC(=O)[C@@H](N)CC(C)C)C(=O)N1CCC[C@H]1C(=O)N[C@@H](CCCCN)C(=O)N[C@H](C(=O)N[C@H](C(=O)N[C@@H](Cc1ccc(O)cc1)C(=O)N[C@@H](CCCCN)C(=O)N[C@@H](CC(C)C)C(=O)N[C@@H](CCCNC(=N)N)C(=O)O)[C@@H](C)O)[C@@H](C)O,broth microdilution,"K88, Mueller-Hinton broth",37 °C,,35.4 µM
CC[C@H](C)[C@H](N)C(=O)N[C@@H](CC(C)C)C(=O)NCC(=O)N[C@H](CCCNC(=N)N)C(=O)N[C@H](C(=O)N[C@@H](Cc1c[nH]c2ccccc12)C(=O)N[C@@H](CCCCN)C(=O)NCC(=O)N[C@H](C(=O)N[C@@H](CCCCN)C(=O)N[C@@H](CC(=O)O)C(=O)N[C@H](C(=O)N[C@@H](CC(C)C)C(N)=O)[C@@H](C)CC)[C@@H](C)CC)[C@@H](C)CC,broth microdilution,ATCC 25922,added: KCl 4.5 mM,,12.5 µM
CC[C@H](C)[C@H](NC(=O)CNC(=O)[C@H](CC(=O)O)NC(=O)[C@H](CCCNC(=N)N)NC(=O)[C@@H](NC(=O)[C@H](CC(N)=O)NC(=O)[C@H](CCCNC(=N)N)NC(=O)CNC(=O)[C@@H](NC(=O)[C@H](CCCCN)NC(=O)[C@H](CCC(=O)O)NC(=O)[C@@H](NC(=O)[C@H](CCCCN)NC(=O)[C@H](CCCCN)NC(=O)[C@H](Cc1ccccc1)NC(=O)[C@@H](NC(=O)[C@H](CCCCN)NC(=O)[C@H](Cc1c[nH]c2ccccc12)NC(=O)[C@@H](N)CCCNC(=N)N)[C@@H](C)CC)[C@@H](C)CC)C(C)C)C(C)C)C(=O)N[C@H](C(=O)N[C@@H](CCCCN)C(=O)N[C@@H](C)C(=O)N1CCC[C@H]1C(=O)N1CCC[C@H]1C(=O)N[C@@H](C)C(=O)N[C@H](C(=O)N[C@@H](C)C(=O)N[C@H](C(=O)N[C@H](C(=O)NCC(=O)N[C@@H](CCC(N)=O)C(=O)N[C@@H](C)C(=O)N[C@@H](C)C(=O)N[C@H](C(=O)N[C@H](C(=O)N[C@H](C(=O)N[C@@H](CCCCN)C(N)=O)C(C)C)C(C)C)[C@@H](C)O)C(C)C)C(C)C)C(C)C)[C@@H](C)CC,,"KCTC 1682, Mueller-Hinton broth","16 h, 37 °C",growth inhibition over 99%,2 µM
NC(=O)[C@@H]1CC[C@@H]2CN1C(=O)N2OS(=O)(=O)O,broth microdilution,"ATCC 2469, NDM-positive",compound alone,,16 µg/mL
O=C(O)c1cccc(C(=O)O)n1,,"ATCC 25922, no carbapenemase","32 µg/mL, MIC of meropenem, added: meropenem",,≤ 0.0625 µg/mL
CC[C@H](C)[C@H](NC(=O)[C@H](CCCCN)NC(=O)[C@H](CCCCN)NC(=O)[C@H](CC(C)C)NC(=O)[C@H](CCCCN)NC(=O)[C@H](CCCCN)NC(=O)[C@H](Cc1ccccc1)NC(=O)[C@H](Cc1ccccc1)NC(=O)[C@H](CCCNC(=N)N)NC(=O)[C@H](CCCNC(=N)N)NC(=O)[C@@H](NC(=O)[C@H](CCCCN)NC(=O)[C@H](CCCNC(=N)N)NC(=O)[C@@H](NC(=O)[C@@H](N)Cc1ccc(O)cc1)[C@@H](C)CC)[C@@H](C)CC)C(=O)N[C@@H](CC(C)C)C(=O)N[C@@H](CCCCN)C(=O)N[C@@H](CCCCN)C(N)=O,,"BL21(DE3), Mueller-Hinton broth",20 h,,1.54 µM
CC[C@H](C)[C@H](NC(=O)[C@H](CCCCN)NC(=O)[C@H](CC(=O)O)NC(=O)[C@H](CC(C)C)NC(=O)[C@@H](NC(=O)[C@H](CC(N)=O)NC(=O)[C@H](CC(C)C)NC(=O)[C@@H](NC(=O)[C@H](Cc1ccccc1)NC(=O)[C@H](CCCCN)NC(=O)[C@H](CCCCN)NC(=O)CNC(=O)[C@H](C)NC(=O)[C@H](CC(N)=O)NC(=O)[C@H](CCCCN)NC(=O)[C@H](Cc1ccccc1)NC(=O)[C@H](CC(N)=O)NC(=O)[C@H](CCC(=O)O)NC(=O)[C@H](Cc1c[nH]c2ccccc12)NC(=O)[C@H](CC(C)C)NC(=O)[C@@H](N)CO)[C@@H](C)CC)[C@@H](C)CC)C(=O)N[C@@H](CCCNC(=N)N)C(N)=O,,ATCC 8739,"overnight, 37 °C, 10 % fetal bovine serum",,32 µM
CC1(C)CC[C@]2(C(=O)O)CC[C@]3(C)C(=CC[C@@H]4[C@@]5(C)CC[C@H](O)C(C)(C)[C@@H]5CC[C@]43C)[C@@H]2C1,,BL21 pET28a-VIM-1,,,512 µg/mL
Cc1cc(-c2cn[nH]c2-c2cccc(OCc3cccc(C#N)c3)c2)cc(C)n1,,multidrug-resistant clinical isolates,,,8 µg/mL
